Published values pooled from the literature.
Every numbered part comes from another study and shows a few of its results, in no order. Substitutions count along the parent as printed.

Set 1 — technique: RNA Bind-n-Seq; form: RNA; medium: in vitro; concentration: not given; relative to: input RNA pool; direction: higher = stronger binding
Target: RING finger protein unkempt homolog, zinc fingers 1-6, GST-SBP tag (UNK, Homo sapiens, UniProt Q9C0B0, residues 30-357)
Setting: RNA with constant flanks, human and mouse sites, ends assumed
Target sequence (chain): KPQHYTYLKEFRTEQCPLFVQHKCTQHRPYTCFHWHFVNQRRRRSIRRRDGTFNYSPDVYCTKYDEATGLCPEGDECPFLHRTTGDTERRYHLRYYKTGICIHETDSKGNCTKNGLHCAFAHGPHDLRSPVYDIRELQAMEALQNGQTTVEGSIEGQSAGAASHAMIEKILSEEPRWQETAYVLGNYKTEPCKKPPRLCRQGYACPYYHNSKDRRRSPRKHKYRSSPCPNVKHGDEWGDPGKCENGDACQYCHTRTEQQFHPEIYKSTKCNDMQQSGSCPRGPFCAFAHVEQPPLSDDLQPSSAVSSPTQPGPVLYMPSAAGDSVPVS
`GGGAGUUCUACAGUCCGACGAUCUCUUUAUACAGACUGAGGCUCAGUCUGCCUGCCCGUCUCUGGGGUGUUCCAUCUCAGCAUUAGGUCAGUUGGUUCUGUUGAGUGUCUUCAGGUCCACCUCCAGCUGGUGAUUAUUUCAGACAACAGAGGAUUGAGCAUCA` has a bound/input enrichment of 0.0955 ratio.
The bound/input enrichment of `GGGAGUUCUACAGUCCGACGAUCACUGAGGAACAGAAGGGCCGAGUGGCCUUUGCUUCCAAUUUCCUGGCAGGAGAUGCCUCCUUGCAGAUUGAACCUCUGAAGCCCAGUGAUGAGGGCCGGUACACCUGUAAGGUUAAGAAUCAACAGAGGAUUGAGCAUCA` is reported as 0.127 ratio.
For `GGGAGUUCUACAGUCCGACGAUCACUCUAAAGACCCUUCUACAUACUUUAUGCAAAUUAAAAGGACCUAAAAUCCUAGACCACCUUACAAUGAUUGAUAAUAAGAAUGAGUCAGAAUUGGAGGCCCACCUGUGUCGGAUGAUGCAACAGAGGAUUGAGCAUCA`, the bound/input enrichment was 0.394 ratio.
With `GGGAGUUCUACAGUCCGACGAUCGUAAAACUGGUACUUCCAAAGACCAAGUUUUCAAUGGUAUUACCAGAAGUAGAAGCGGCAUUAGCAGAGAUUCCCGGAGUCAGGAGUGUUGUAUUAUUUGGAGUAGAAACUCAUGUGUGCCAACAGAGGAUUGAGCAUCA` the bound/input enrichment was 0.416 ratio.
With `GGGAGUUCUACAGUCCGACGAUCACAGCUGAUUCACUCAUUGGGAGAGCUGCACAUAUAGCUGUUCUUGAUUCGGAAAUAUUUUUAGAGAAAUUCUUUCUGGUUGCUGCCCUCAAAUAUUUCCAAUAGUAUAAAAGCAUUGUUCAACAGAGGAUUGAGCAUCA` the bound/input enrichment was 6.49 ratio.
`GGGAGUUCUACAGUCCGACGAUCGCUCUUUCUCAUUCACCAACUAUAUUAGAAGCACUUGAGGGAAAUUUACCACUCCAAAUCCAAAGCAAUGAACAGUCUUUUCUGGAUGAUUUUAUUGCCUGUGUCCCAGGAUCAAGUGGUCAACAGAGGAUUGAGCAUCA` gave a bound/input enrichment of 0.377 ratio.
The bound/input enrichment of `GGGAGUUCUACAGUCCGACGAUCUGGUCAUUUAUAGCAAUUAGAGUGGGUUGCCCCUCUACUUCUCCCAAGAAGAAAUCCCAAAUAGAUUCCUUUCAUGUCAGAUUAUACUGUUCUGAUUUUAUUUUCUAUUAUUUUUACAUACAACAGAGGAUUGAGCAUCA` is reported as 20 ratio.
`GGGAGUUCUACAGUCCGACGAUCUUGGACAGGGCUUAUUUAAUUAAACUUUCUGGUUUGAACAAGGAGACAUAUCAGAGCUGUCUUAAAUCUUUUGAGUGUUUACUGGGCCUGAAUUCAAAUAUUGGAAUAAGAGACCUAGCUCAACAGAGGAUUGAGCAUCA` has a bound/input enrichment of 0.289 ratio.

Set 2 — technique: RNA Bind-n-Seq; form: RNA; medium: in vitro; concentration: 365 nM; relative to: no-protein control; direction: higher = stronger binding
Target: RNA binding protein fox-1 homolog 2, RRM domain, GST-SBP tag (RBFOX2, Homo sapiens, UniProt O43251-10, residues 100-194)
Setting: natural RNA segment, single round, ends assumed
Construct (chain): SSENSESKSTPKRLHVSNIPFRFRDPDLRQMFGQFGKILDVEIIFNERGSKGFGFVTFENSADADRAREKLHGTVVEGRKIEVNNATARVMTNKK
`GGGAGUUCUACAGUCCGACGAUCCCUCUGUCGUGUGUGCUGAUUUGAGUGGCUUAGCUUGCCACAGCGCAGCCUCUUCUGUCCCUUUCAGUCAUUUGCUGUACUUCCCUGUGGCACGUUACCAUGGAAGCCGCUGGAAUUCUCGGGUGCCAA`: “RBNS enrichment (R)” 0.274.
`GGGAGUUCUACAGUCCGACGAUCCCAGUUUGGUCUCAGGCAUAGCCUGAGCAGAUCUUAGUUUUGCCCCCACCACCAUAGUUUUGUGCUAUCCUAGUUUCUGUUAAGAUUGGUGCUAUCCAAUUCCCAUCACUUGGAAUUCUCGGGUGCCAA`: “RBNS enrichment (R)” 0.326.
Under “RBNS enrichment (R)”, `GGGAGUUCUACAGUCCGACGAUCACUCAGUGGCUAAGAGAAUUGGCUGUUCUUCCAGAGGACCCAGGUUUGAUUCCUAGCAGCACAUAGAGGCUAAACCACCUGUAACUCUAGUCUCAGGGGCUCCAACAUCCUGGAAUUCUCGGGUGCCAA` is recorded as 0.757.
Under “RBNS enrichment (R)”, `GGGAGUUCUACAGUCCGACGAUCAGGUAAUGAACAUCUUUUUCAGUAAUUGUAAAGUGAUUUAUUCAGAAUAAAUUUUUUGUGCUUAUGAGUUGAUAUGUAUCUGAACAGUUUGUUCUAAGUACCAUUUUUCUUGGAAUUCUCGGGUGCCAA` is recorded as 0.618.
`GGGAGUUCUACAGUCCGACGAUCUUCAUUUUGAUGUUCGGGUUUUUGUGUUAAGUUAAUCUGUACAUUCUGUUUGCCAUUGUUACUUGUACUAUACAUCUGUAUAUAGUGUACGGCAAAAGAGUAUUAAUCCAUGGAAUUCUCGGGUGCCAA` — result for “RBNS enrichment (R)”: 0.473.
`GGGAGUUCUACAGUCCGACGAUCCCUGUGUUCCCGAGCGCUUCCAGGACUCAUCGUGAGCAGCAGCAUGGAGGCCCCUUCCUGCUGACCUUGCACGCGAGGGAUGCUACUAGGGACUGCUGGGGAUCUUUUCUUGGAAUUCUCGGGUGCCAA` — result for “RBNS enrichment (R)”: 2.76.
`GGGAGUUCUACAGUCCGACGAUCACCGGAAGGUUUAUCACCACCCUGGGAAACAUAAUGCUGCCCCUUGGGCCCAGAAAGGGGUUUCCAGCUGGGGGCACGUGGACUGGUUCUGCUGUUUUUGGCAGUCGCUUUGGAAUUCUCGGGUGCCAA` — result for “RBNS enrichment (R)”: 0.191.
`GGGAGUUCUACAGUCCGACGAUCCAGGCAGGGAGUGGAGCUAACAGCUUAGUCACCAGGACCCCCAGACCUGCAAACGUCCCCUCCUGGAAGGGGAAGCCAGGAACAGCAGAACUGCCCACAAAACAAGGCUGUGGAAUUCUCGGGUGCCAA`: “RBNS enrichment (R)” 0.516.

Set 3 — technique: protein-binding microarray; form: double-stranded DNA, one strand shown; medium: in vitro; concentration: not given; direction: higher = stronger binding
Target: Transcriptional repressor CTCF (CTCF, Homo sapiens, UniProt P49711, residues 1-727, full length assumed)
Setting: k-mer, scored over probes, only values ≥0.25
Target sequence (chain): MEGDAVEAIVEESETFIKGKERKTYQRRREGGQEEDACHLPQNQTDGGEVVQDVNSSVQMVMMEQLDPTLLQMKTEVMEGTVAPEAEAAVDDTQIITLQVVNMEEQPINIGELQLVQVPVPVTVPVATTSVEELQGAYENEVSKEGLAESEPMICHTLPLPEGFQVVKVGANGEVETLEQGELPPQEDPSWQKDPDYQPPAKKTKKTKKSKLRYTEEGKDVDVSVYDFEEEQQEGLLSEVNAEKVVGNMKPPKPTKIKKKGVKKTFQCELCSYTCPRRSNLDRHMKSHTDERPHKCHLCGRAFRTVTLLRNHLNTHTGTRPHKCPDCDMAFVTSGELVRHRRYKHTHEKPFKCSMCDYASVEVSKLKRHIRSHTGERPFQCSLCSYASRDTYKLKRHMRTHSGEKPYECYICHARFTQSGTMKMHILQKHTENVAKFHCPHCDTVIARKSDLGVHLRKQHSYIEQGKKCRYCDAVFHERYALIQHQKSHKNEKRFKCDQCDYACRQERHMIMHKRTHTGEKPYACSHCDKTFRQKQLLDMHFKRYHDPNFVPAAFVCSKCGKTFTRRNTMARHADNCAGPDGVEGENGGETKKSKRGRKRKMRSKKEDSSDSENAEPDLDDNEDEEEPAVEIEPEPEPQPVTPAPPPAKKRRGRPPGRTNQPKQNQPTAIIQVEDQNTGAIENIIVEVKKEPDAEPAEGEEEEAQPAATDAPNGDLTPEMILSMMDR
`AATAAATA` gave an E-score of 0.375.
`CAACATTA` has an E-score of 0.265.
The E-score of `GGGCGCTA` is reported as 0.285.
`ATAGGGGG` gave an E-score of 0.342.
`CATGTATA` gave an E-score of 0.298.
For `ATATTGTG`, the E-score was 0.28.
For `ACATATGT`, the E-score was 0.337.
For `AGTACGTA`, the E-score was 0.267.
With `AATTATGC` the E-score was 0.292.
For `GTGCGCAA`, the E-score was 0.298.
With `GTCATACA` the E-score was 0.264.
`GTTTAATA` has an E-score of 0.29.
With `CTATATAC` the E-score was 0.281.
`AAATGCAA` gave an E-score of 0.273.
With `AAACATAT` the E-score was 0.297.
`ATATTATC` has an E-score of 0.263.
The E-score of `AATACTAT` is reported as 0.286.
The E-score of `GGAATTAA` is reported as 0.278.

Set 4 — target: CCNA2, cyclin fold, Cln2 fusion (human); technique: yeast growth competition, sequencing; medium: yeast; setting: strong parent motif; relative to: not given; direction: higher = stronger binding
Parent: BRCA2 docking peptide (human); CKKRRALDFLSRL
Under “normalised enrichment score”, `F9A` is recorded as 1.79.
`L7A` — result for “normalised enrichment score”: 1.67.
`L10A`: “normalised enrichment score” 1.83.
`R5K`: “normalised enrichment score” 1.55.
Under “normalised enrichment score”, `R12A` is recorded as 3.38.
`R5A` — result for “normalised enrichment score”: 2.67.
`D8A`: “normalised enrichment score” 1.17.

Set 5 — technique: aptamer microarray, sandwich; form: DNA with 2'F-ANA; medium: in vitro; concentration: 200 nM; together with: Cy3 exosite-II aptamer, 400 nM; direction: higher = stronger binding; oligonucleotide: GGTTGGTGTGGTTGG
Target: Prothrombin, mature alpha-thrombin (F2, Homo sapiens, UniProt P00734)
Setting: whole 15-mer aptamer, many near background
`2'F-ANA at 3 5 6 7 8 9 10 11 12 14` — result for “mean fluorescence intensity”: 68 a.u.
Under “mean fluorescence intensity”, `2'F-ANA at 1 3 4 5 9 14` is recorded as 42.8 a.u.
For `2'F-ANA at 3 5 6 7 11 13 15`, “mean fluorescence intensity” read 76 a.u.
`2'F-ANA at 1 2 5 6 7 9 10 11`: “mean fluorescence intensity” 47.7 a.u.
For `2'F-ANA at 1 4 5 6 7 8 13 14`, “mean fluorescence intensity” read 60.3 a.u.
`2'F-ANA at 1 2 4 5 7 8 15`: “mean fluorescence intensity” 142 a.u.
`2'F-ANA at 1 2 3 4 7 9 10 15` — result for “mean fluorescence intensity”: 59.9 a.u.
`2'F-ANA at 1 2 3 4 5 9 10 12 14 15` — result for “mean fluorescence intensity”: 47 a.u.
Under “mean fluorescence intensity”, `2'F-ANA at 2 3 6 7 8 9 11 15` is recorded as 674 a.u.
`2'F-ANA at 1 2 4 5 6 11 13 14 15`: “mean fluorescence intensity” 50.9 a.u.
For `2'F-ANA at 2 5 6 7 8 9 10 11 12 14`, “mean fluorescence intensity” read 46.8 a.u.
`2'F-ANA at 2 3 5 7 13 14 15`: “mean fluorescence intensity” 71.4 a.u.
`2'F-ANA at 4 5 9 11 14` — result for “mean fluorescence intensity”: 56.1 a.u.
For `2'F-ANA at 1 2 3 5 6 9 10 11 14 15`, “mean fluorescence intensity” read 60.2 a.u.
For `2'F-ANA at 1 4 8 9 10 11 13 15`, “mean fluorescence intensity” read 46.8 a.u.
For `2'F-ANA at 1 4 5 7 8 9 10 12 13 14`, “mean fluorescence intensity” read 46.5 a.u.

Repeated from above (set 4):
Under “normalised enrichment score”, `F9A` is recorded as 1.79.
`L7A` — result for “normalised enrichment score”: 1.67.
`L10A`: “normalised enrichment score” 1.83.
`R5K`: “normalised enrichment score” 1.55.
Under “normalised enrichment score”, `R12A` is recorded as 3.38.
`R5A` — result for “normalised enrichment score”: 2.67.
`D8A`: “normalised enrichment score” 1.17.
